Results gathered from unrelated publications.
Protocols differ between the studies behind these lines. Several values in a cell are separate wells, animals, samples, runs or records. ± marks the error that the study gave. In brackets after ≈: the same amount, converted by molar mass.

SMILES = CCN(CC)CCCNC(=O)CSc1c2c(nc3cc(Cl)ccc13)CCCC2; target or system = Mus musculus; assay = gene silencing, high-content imaging; test system = LDR reporter GFP cells; setting = retest run 2; quantity = AC50; result = 10 µM
SMILES = C=C(NC(=O)c1csc(-c2nc3c(cc2O)-c2nc(cs2)C(=O)NC(C(C)O)C(=O)NC(=C(C)OC)c2nc(cs2)C(=O)NC2c4nc(cs4)C(=O)NC(COC(=O)c4c5c6c(cccc6n4O)COC(=O)C(OC4CC(C)(O)C(N(C)C)C(C)O4)C2OC5)c2nc-3cs2)n1)C(N)=O (stereo not shown); target or system = Staphylococcus aureus; test system = MRSA, 10 isolates; setting = pH 5.5; quantity = MIC50; result = 0.0156 µg/mL (≈ 0.0109 µM)
SMILES = Cc1cnc(CNC(=O)c2c(=O)c3ccc(N4CCCN(C)CC4)nc3n3c2sc2ccccc23)cn1; target or system = Trypanosoma brucei; assay = RNA-seq; test system = Lister 427 bloodstream form; setting = 2 x EC50, 4 h, overlap, with peaks, G4 ChIP-seq; scale = relative to: untreated; quantity = upregulated G4-containing genes; result = 3 genes
SMILES = CC1(C)C(NC(=O)C(=NOCC(=O)N2CC3CCCC3C2C(=O)O)c2csc(N)n2)C(=O)N1OS(=O)(=O)O (stereo not shown); target or system = Proteus vulgaris; assay = agar dilution; test system = ATCC 29905, susceptible; quantity = MIC; result = ≤ 0.03 µg/mL
SMILES = Cc1ncsc1-c1ccc(C(C)NC(=O)C2CC(O)CN2C(=O)C(NC(=O)CCCCCCCCCCN2CCCC(Nc3ncc(Cl)c(Nc4ccccc4S(=O)(=O)C(C)C)n3)C2)C(C)(C)C)cc1 (stereo not shown); target or system = 22Rv1; assay = RNA-seq, measured: LINC01006 mRNA; setting = concentration not given; scale = relative to: DMSO; quantity = log2 fold change; result = -1
SMILES = [2H]C([2H])(N)C([2H])([2H])NC(=O)c1cc(C2CC2)nc2c1cnn2C(C)C; target or system = Enterovirus D68; assay = viral replication; test system = RD, US/MO/14-18947; setting = 100 nM; quantity = plaque reduction; result = 0%
SMILES = C(=N\Nc1nc(-c2ccccn2)nc2ccccc12)/c1ccccc1; target or system = Mus musculus; assay = gene silencing, high-content imaging; test system = LDR reporter GFP cells; setting = retest run 1; quantity = AC50; result = 10 µM
SMILES = CC1(C)[C@H](NC(=O)/C(=N\OCCN)c2nsc(N)n2)C(=O)N1OS(=O)(=O)O; target or system = Proteus vulgaris; assay = agar dilution; test system = ATCC 29905, susceptible; quantity = MIC; result = 0.25 µg/mL (≈ 0.59 µM)
SMILES = c1ccc(COc2ccc(Nc3ncnc4ccc(-c5cccc(N6CCOCC6)c5)cc34)cc2)cc1; target or system = Leishmania major; assay = parasite growth, resazurin; setting = promastigote; quantity = EC50; result = 2.7 µM
SMILES = O=[N+]([O-])C(=C\Nc1ccccc1O)/C=N/c1ccccc1O; target or system = Mus musculus; assay = gene silencing, high-content imaging; test system = LDR reporter GFP cells; setting = retest, mean of two runs; quantity = EC50; result = 12.6 µM
SMILES = CN1CCN(S(=O)(=O)c2ccc(-c3ccc4ncnc(Nc5ccc(OCc6ccccc6)c(Cl)c5)c4c3)cc2)CC1; target or system = Leishmania major; assay = parasite growth, resazurin; setting = promastigote; quantity = EC50; result = 3.4 µM
SMILES = CN(C)CCNC(=O)c1cccn2c(=O)c3cc4ccccc4cc3nc12; target or system = Trypanosoma brucei; assay = RNA-seq; test system = Lister 427 bloodstream form; setting = 2 × EC50, 4 h; quantity = unchanged G4-containing genes; result = 712 genes
SMILES = CC(=O)OC[C@H]1O[C@@H](Sc2sc(C(=O)c3ccc(C)cc3)c(N)c2-c2nc3ccccc3s2)[C@H](OC(C)=O)[C@@H](OC(C)=O)[C@@H]1OC(C)=O; target or system = human adenovirus type 7; assay = plaque reduction; setting = non-toxic concentration; quantity = viral titre reduction; result = 10%
SMILES = Cc1cc(-c2ccc3ncnc(Nc4ccc(OCc5cccc(F)c5)c(Cl)c4)c3c2)cnc1N1CCOCC1; target or system = Leishmania major; assay = parasite growth, resazurin; setting = promastigote; quantity = EC50; result = 3.6 µM
SMILES = CC(C)n1ncc2c(C(=O)NCC3CNC3)cc(C3CC3)nc21; target or system = Enterovirus D68; assay = viral replication; test system = RD, US/MO/14-18947; setting = 1000 nM; quantity = plaque reduction; result = 74.5% and 77.4%
SMILES = COc1cccc(/C=N/Nc2nc(Nc3ccccc3)nc(-n3nc(C)cc3C)n2)c1O; target or system = Mus musculus; assay = gene silencing, high-content imaging; test system = LDR reporter GFP cells; setting = 30 h, retest, mean of two runs; quantity = Emax; result = 91%
SMILES = CC1(C)[C@H](NC(=O)/C(=N\OCc2c(Cl)cccc2Cl)c2csc(N)n2)C(=O)N1OS(=O)(=O)O; target or system = Shigella flexneri; assay = agar dilution; test system = ATCC 12022, susceptible; quantity = MIC; result = 1 µg/mL (≈ 1.86 µM)
SMILES = CN(Cc1ccc(C2(C(F)(F)F)CCC2)cc1)Cc1cccc2ccccc12; target or system = Trichophyton mentagrophytes; assay = microbial killing, broth dilution; test system = ATCC18748; setting = 72 h; quantity = MFC; result = 32000 µg/mL (≈ 83500 µM)
SMILES = Cc1c(CN(C)C(=O)/C=C/c2cnc3c(c2)CC(N)C(=O)N3)oc2ccccc12 (stereo not shown); target or system = Klebsiella pneumoniae; assay = microbial growth, broth dilution; test system = BAA2342; quantity = MIC; result = 16 µg/mL (≈ 41 µM)
SMILES = FC(F)(F)c1cccc(CNc2nc(NC3CCN(Cc4ccccc4)CC3)c3nc[nH]c3n2)c1; target or system = Cryptococcus neoformans; assay = RNA-seq, measured: ARG1 (CNAG_06500); test system = wild type; setting = 48 µg/mL, 3 h; scale = relative to: untreated wild type; quantity = log2 fold change; result = 1.25
SMILES = CC1=C/C(=N\N=C(/S)Nc2cccnc2)CC(C)(C)C1; target or system = Mus musculus; assay = gene silencing, high-content imaging; test system = LDR reporter GFP cells; setting = 30 h, retest run 1; quantity = Emax; result = 58%
SMILES = Fc1cccc(COc2ccc(Nc3ncnc4ccc(-c5cccc(-n6cccn6)c5)cc34)cc2Cl)c1; target or system = Leishmania major; assay = parasite growth, resazurin; setting = promastigote; quantity = EC50; result = > 15 µM
SMILES = N=C(S)N/N=C/c1ncc(C(F)(F)F)cc1Cl; target or system = Mus musculus; assay = gene silencing, high-content imaging; test system = LDR reporter GFP cells; setting = 30 h, retest run 2; quantity = Emax; result = 92%
SMILES = CC1(C)[C@H](NC(=O)/C(=N\OCC(=O)N2CCC(C(=O)O)C2)c2nsc(N)n2)C(=O)N1OS(=O)(=O)O (stereo partly shown); target or system = Proteus vulgaris; assay = agar dilution; test system = ATCC 29905, susceptible; quantity = MIC; result = 1 µg/mL (≈ 1.87 µM)
SMILES = Cc1ccc(C(C)C)c(OCc2ccc(C(=O)N/N=C/c3cccc(O)c3O)cc2)c1; target or system = Mus musculus; assay = gene silencing, high-content imaging; test system = LDR reporter GFP cells; setting = 30 h, retest run 1; quantity = Emax; result = 39%
SMILES = c1ccc(CN2CCOCCOCCN(CCCCCCCCCCCCN3CCOCCOCCN(CCCCCCCCCCCCN4CCOCCOCCN(Cc5ccccc5)CCOCCOCC4)CCOCCOCC3)CCOCCOCC2)cc1; target or system = Klebsiella pneumoniae; test system = ATCC BAA-2146; setting = 2.5 µM, with: tetracycline; quantity = tetracycline MIC; result = 500 ± 50 µM
SMILES = COc1nc(Nc2nc(O)c3ccccc3n2)nc2ccc(C)cc12; target or system = Mus musculus; assay = gene silencing, high-content imaging; test system = LDR reporter GFP cells; setting = retest run 2; quantity = AC50; result = 3.98 µM
SMILES = CC(C)(C)NCC(SS(=O)(=O)O)c1ccccc1 (stereo not shown); target or system = Schistosoma mansoni; test system = mice; setting = 600 mg/kg single dose, dosed day 1, perfused 44; quantity = male worms recovered; result = 16 worms per mouse and 15 worms per mouse and 59 worms per mouse and 23 worms per mouse
SMILES = COc1cc(NC=O)c(N(C)S(=O)(=O)c2ccc(N(C)C)cc2)cc1OC; target or system = Leishmania infantum; assay = intracellular amastigote growth; test system = U-937 macrophages and HeLa; scale = relative to: IC50 HeLa over IC50 amastigotes; quantity = selectivity index; result = 0.22
SMILES = O=S(=O)(c1ccc(-c2ccc3ncnc(Nc4ccc(OCc5cccc(Br)c5)c(Cl)c4)c3c2)cc1)N1CCOCC1; target or system = Leishmania major; assay = parasite growth, resazurin; setting = promastigote; quantity = EC50; result = > 15 µM
SMILES = C[n+]1cccc2cc(/C=N/NC(=O)C(=O)N/N=C/c3ccc4c(ccc[n+]4C)c3)ccc21; target or system = hp2 hairpin duplex DNA; assay = FRET melting; setting = 1 µM, with: ds26 10 µM; quantity = ΔTm; result = 0.6 ± 0.3 °C
SMILES = Fc1cccc(COc2ccc(Nc3ncnc4ccc(-c5cccc(CN6CCOCC6)c5)cc34)cc2Cl)c1; target or system = Leishmania major; assay = parasite growth, resazurin; setting = promastigote; quantity = EC50; result = 3.3 µM
SMILES = CC1(C)[C@H](NC(=O)/C(=N\OCC(=O)N2CCC[C@@H]2C(=O)O)c2nsc(N)n2)C(=O)N1OS(=O)(=O)O; target or system = Proteus vulgaris; assay = agar dilution; test system = ATCC 29905, susceptible; quantity = MIC; result = 0.5 µg/mL (≈ 0.934 µM)
SMILES = CC(=O)O[C@@H]1[C@@H](OC(C)=O)[C@H](Sc2sc(C(=O)c3ccc(C)cc3)c(N)c2-c2nc3ccccc3s2)OC[C@H]1OC(C)=O; target or system = human adenovirus type 7; assay = plaque reduction; setting = non-toxic concentration; quantity = viral titre reduction; result = 20%
SMILES = O=S(=O)(c1ccc(-c2ccc3ncnc(Nc4ccc(OCc5cccc(F)c5)c(Cl)c4)c3c2)cc1)N1CCCC1; target or system = Leishmania major; assay = parasite growth, resazurin; setting = promastigote; quantity = EC50; result = > 15 µM
SMILES = CC(C)n1ncc2c(C(=O)NC[C@@H](C)N)cc(C3CC3)nc21; target or system = Enterovirus D68; assay = viral replication; test system = RD, US/MO/14-18947; setting = 1000 nM; quantity = plaque reduction; result = 98% and 99.8%
SMILES = O=S(=O)(c1cccc(-c2ccc3ncnc(Nc4ccc(OCc5cccc(F)c5)c(Cl)c4)c3c2)c1)N1CCCC1; target or system = Leishmania major; assay = parasite growth, resazurin; setting = promastigote; quantity = EC50; result = > 15 µM
SMILES = C#CCO/N=C(\C(=O)N[C@@H]1C(=O)N(OS(=O)(=O)O)C1(C)C)c1nsc(N)n1; target or system = Proteus vulgaris; assay = agar dilution; test system = ATCC 29905, susceptible; quantity = MIC; result = 0.25 µg/mL (≈ 0.597 µM)
SMILES = O=C(N/N=C/c1cc[n+](Cc2ccccc2)c2ccccc12)c1ccc2ccc3ccc(C(=O)N/N=C/c4cc[n+](Cc5ccccc5)c5ccccc45)nc3c2n1; target or system = hp2 hairpin duplex DNA; assay = FRET melting; setting = 1 µM, with: ds26 10 µM; quantity = ΔTm; result = 0.8 ± 0.2 °C
SMILES = COC(=O)C1=CO[C@@H](C)[C@@H]2Cn3ccc4c5ccccc5nc-4c3C[C@H]12; target or system = Plasmodium falciparum; assay = growth; test system = 3D7; setting = 96 h, with: 200 µM IPP; scale = relative to: with IPP over without IPP; quantity = IC50 ratio; result = 1

Excerpt of the above:
SMILES = COc1cc(NC=O)c(N(C)S(=O)(=O)c2ccc(N(C)C)cc2)cc1OC; target or system = Leishmania infantum; assay = intracellular amastigote growth; test system = U-937 macrophages and HeLa; scale = relative to: IC50 HeLa over IC50 amastigotes; quantity = selectivity index; result = 0.22
SMILES = FC(F)(F)c1cccc(CNc2nc(NC3CCN(Cc4ccccc4)CC3)c3nc[nH]c3n2)c1; target or system = Cryptococcus neoformans; assay = RNA-seq, measured: ARG1 (CNAG_06500); test system = wild type; setting = 48 µg/mL, 3 h; scale = relative to: untreated wild type; quantity = log2 fold change; result = 1.25
SMILES = CC(C)n1ncc2c(C(=O)NC[C@@H](C)N)cc(C3CC3)nc21; target or system = Enterovirus D68; assay = viral replication; test system = RD, US/MO/14-18947; setting = 1000 nM; quantity = plaque reduction; result = 98% and 99.8%
SMILES = CC1(C)[C@H](NC(=O)/C(=N\OCc2c(Cl)cccc2Cl)c2csc(N)n2)C(=O)N1OS(=O)(=O)O; target or system = Shigella flexneri; assay = agar dilution; test system = ATCC 12022, susceptible; quantity = MIC; result = 1 µg/mL (≈ 1.86 µM)
